Assay results pooled from the literature.
Parts stem from different laboratories: compare values within a part only. Positions count from the first letter of the parent shown.

Block 1
Target: ABI1, truncated, D143A, DHFR fusion (Arabidopsis thaliana)
Technique: DHFR PCA, deep sequencing
Matrix: yeast
Notes: methotrexate growth selection, single substitutions
Together with: (+)-ABA 2500 µM
Baseline: wild-type fitted maximum
Reading: higher = stronger binding
Starting sequence: PYL1, truncated, DHFR fusion (Arabidopsis thaliana); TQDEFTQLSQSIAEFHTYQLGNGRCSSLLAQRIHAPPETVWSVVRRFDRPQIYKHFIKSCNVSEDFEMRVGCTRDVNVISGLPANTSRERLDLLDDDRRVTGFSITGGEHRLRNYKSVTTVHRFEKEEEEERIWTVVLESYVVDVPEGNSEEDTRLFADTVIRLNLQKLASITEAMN
`T6Y`: “relative binding score” 94%.
`T120N` — result for “relative binding score”: 59.9%.
`P37M`: “relative binding score” 90%.
Under “relative binding score”, `G23Q` is recorded as 93.7%.
For `H122I`, “relative binding score” read 80.4%.
Under “relative binding score”, `A13C` is recorded as 95.5%.
Under “relative binding score”, `I172R` is recorded as 88.8%.
Under “relative binding score”, `I33C` is recorded as 88.3%.
Under “relative binding score”, `A84W` is recorded as 57.8%.
`E127R`: “relative binding score” 95.5%.
For `E174H`, “relative binding score” read 89.8%.
For `N77H`, “relative binding score” read 103%.
`K54C` — result for “relative binding score”: 25%.

Block 2
Target: RING finger protein unkempt homolog, zinc fingers 1-6, SBP tag (UNK, Homo sapiens, UniProt Q9C0B0, residues 30-357)
Chain of UniProt Q9C0B0 (30-357, looked up): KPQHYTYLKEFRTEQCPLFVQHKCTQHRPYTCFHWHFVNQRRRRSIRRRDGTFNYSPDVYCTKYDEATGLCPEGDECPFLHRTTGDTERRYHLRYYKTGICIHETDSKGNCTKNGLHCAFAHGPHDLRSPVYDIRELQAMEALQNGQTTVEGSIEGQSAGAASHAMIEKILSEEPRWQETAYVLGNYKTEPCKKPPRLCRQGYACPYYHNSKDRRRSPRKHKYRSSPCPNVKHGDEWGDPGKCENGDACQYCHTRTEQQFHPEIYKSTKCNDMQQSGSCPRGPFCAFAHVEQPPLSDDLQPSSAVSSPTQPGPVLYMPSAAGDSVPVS
Technique: RNA Bind-n-Seq
Molecule type: RNA
Matrix: in vitro
Tested at: 100 nM
Notes: RNA with constant flanks, vertebrate orthologous sites, ends assumed
Baseline: input RNA pool
Reading: higher = stronger binding
Constant ends, left off below: GGGAGUUCUACAGUCCGACGAUC … CAACAGAGGAUUGAGCAUCA
`GUUAGGUCAUGACCCUUAUAGGCUAGGUCAUGAUGCUUAUAGAUUAGGGCAAGACCCUUAUAGAUUAGGCCAUGAUCCCUACAGACUAACUCCUGAUCCCUAUAGGAUGUCACCUAGACC` gave a bound/input enrichment of 0.544 ratio.
The bound/input enrichment of `CAACGCCAUGGUGGAUGGCUCGGAGCUGAAGAAGGUGCGCUCCAACUCCCGCGUCUACCACCGCUACUUCCUGCUCGACGCCGACAUGCAGUCGCUGAGGUGGGAGCCCUCGAAGAAGGA` is reported as 0.275 ratio.
The bound/input enrichment of `UCCCAGCACUUCGAUAAAAAGUGUGGACUGGUUGCUUGUAUUUUCCUUAUUCUUUUUAAUUAGCUUUAUUAUGUAUGCUACUAUUCGAACUGAGAGCAUUCGGUGGCUAAUUCCAGGACA` is reported as 0.8 ratio.
With `GGGCCGCAGGUGGGGUAAUUACAUGCCCUAGCCUUGCCUCCCCUUCCUGUCACCGGCUCCUAGUUAUUUUUUUUUUAACCACCACGUGAUUAAGGUCGGAGCUGCCUCCUCCCGACCCGC` the bound/input enrichment was 1.03 ratio.
With `CAGCUGAUUCACUCAUUGGAAGAGCUGCACAUAUAGCUGUUCUGGAUUCAGAAAUAUUUUUGGAGAAAUUCUUCCUGGUUGCUGCCCUCAAAUAUUUCCAAUAGAAUAAACAUAUUAGAC` the bound/input enrichment was 1.4 ratio.
For `UGGCCUGUGGCUGUGUGUUCAAACACCCCUCCCACAGGACUCACUUUGUCCCAACAAUUCAGAUUGCCUAGAAAUACCUUUCUCUUACCUGUUUGUUAUUUAUCAAUUUUUCCCAGUAUU`, the bound/input enrichment was 0.479 ratio.
The bound/input enrichment of `AUCCUCUACUUAAAUUGGUAUUUUCAGACGAUAGGAAGCUUUUUUUUUUUUUUUUUACAGUUUAGUGUCUGGUUUCUCCAUGGAAGACUAAACUCAUGCUUAUAGCUAAAUGUGGUCUUU` is reported as 0.537 ratio.
For `AUCCCUCAGUGACAGUAUGCCAUCUGUAGCAGAUUCUCACUCUAGUCAUUUUUCUGAAUUUAGUUGUUCUGACCUAGAAAGCAUGAAAACGUCUUGUAGUCAUGGUUCCAGUGAUUAUCA`, the bound/input enrichment was 1.82 ratio.

Block 3
Target: Histone acetyltransferase KAT6A, winged helix 1, GST fusion (KAT6A, Homo sapiens, UniProt Q92794, residues 1-85)
Technique: protein binding microarray
Molecule type: double-stranded DNA, one strand shown
Matrix: in vitro
Tested at: not given
Notes: 8-mer, flanks averaged, mean of 2 arrays, mostly near background
Baseline: not given
Reading: higher = stronger binding
Residues (chain): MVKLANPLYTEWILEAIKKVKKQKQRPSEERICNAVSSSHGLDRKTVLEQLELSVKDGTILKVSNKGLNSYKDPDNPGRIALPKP
`CTGTGCTC` gave an E-score of -0.17.
For `ACTTGCGG`, the E-score was 0.0844.
`TGAACTCA` has an E-score of -0.171.
`AATCTGAG` gave an E-score of -0.225.
`CTCTCGCA` has an E-score of -0.0929.
With `AATCAACC` the E-score was 0.0101.
For `ACGTGCGG`, the E-score was 0.216.
`GCGAACAA` has an E-score of 0.00299.
`ACGCGGGC` has an E-score of 0.374.
For `ATACCTAC`, the E-score was -0.0115.
With `AACTTATT` the E-score was -0.171.
The E-score of `ACACTCTG` is reported as -0.183.
`GCTGCCCA` has an E-score of -0.0976.
`ACCCCAGC` gave an E-score of -0.202.
`CATGTGCC` gave an E-score of -0.0373.

Other studies, line by line
`PhoQ, residues 284 288 289 292 302 303 ASTSDA` has a fold induction of 2.57 (PhoP, residues 12 14 15 18 19 NYFTV (Escherichia coli, UniProt P23836); Sort-seq, measured: YFP reporter; E. coli; PhoQ-PhoP variant library, together with: 10 µM Mg2+; baseline: high Mg2+ state, higher = stronger signaling).

A few entries again (block 1):
For `N77H`, “relative binding score” read 103%.
`E127R`: “relative binding score” 95.5%.
